Measured values pooled from the literature.
Each line is one published result; not all experiments were run side by side. Converted amounts (≈) assume the structure as drawn.

C=C(NC(=O)c1csc(-c2nc3c(cc2O)-c2nc(cs2)C(=O)NC(C(C)O)C(=O)NC(=C(C)OC)c2nc(cs2)C(=O)NC2c4nc(cs4)C(=O)NC(COC(=O)c4c5c6c(cccc6n4O)COC(=O)C(OC4CC(C)(O)C(N(C)C)C(C)O4)C2OC5)c2nc-3cs2)n1)C(N)=O (centres unmarked) — MIC50 (Enterococcus faecalis; vancomycin-intermediate, 10 isolates; serum 50%): 0.0312 µg/mL (≈ 0.0217 µM)
O=Cc1c[nH]c2ccccc12 — IC50 (Bacteroides fragilis; microbial growth, absorbance): > 50 µM
N=C(N)NCCC[C@@H]1NC(=O)[C@H](CCCNC(=N)N)NC(=O)[C@@H](CCCNC(=N)N)NC(=O)[C@H](C(c2ccccc2)c2ccccc2)NC(=O)[C@H](C(c2ccccc2)c2ccccc2)NC(=O)[C@H](C(c2ccccc2)c2ccccc2)NC(=O)[C@H](CCCNC(=N)N)NC1=O — MIC (Blastomyces dermatitidis; BD-1): 0.5 µg/mL (≈ 0.386 µM)
Cc1ccc(S(=O)(=O)Nn2c3c(cc(-c4nc5ccccc5s4)c2=O)CCCCCC3)cc1 — viral load reduction (hepatitis C virus; qRT-PCR; Huh7.5, genotype 4; concentration not given): 30%
CC1(C)[C@H](NC(=O)/C(=N\OCCN)c2csc(N)n2)C(=O)N1OS(=O)(=O)O — MIC (Serratia marcescens; agar dilution; ATCC 21074, susceptible): 1 µg/mL (≈ 2.37 µM)
c1ccc2c(Cc3c[nH]c4ccccc34)c[nH]c2c1 — IC50 (Parabacteroides distasonis; bacterial growth, inhibitor, OD600; anaerobic): > 50 µM
COC1C=COC2(C)Oc3c(C)c(O)c4c(c3C2=O)C2=NC3(CCN(CC(C)C)CC3)NC2=C(NC(=O)C(C)=CC=CC(C)C(O)C(C)C(O)C(C)C(OC(=O)Nc2cccnn2)C1C)C4=O (centres unmarked) — IC90 (Mycobacteroides abscessus; bacterial growth; subsp. abscessus ATCC 19977): 0.042 µM
O=S(=O)(CCC(F)(F)F)N[C@H]1CC[C@H](Nc2ncc3c(-c4ccccn4)n[nH]c3n2)CC1 — EC50 (Leishmania donovani; parasite growth; THP-1; intracellular, amastigote): 0.316 µM
CC(C)(C)NCC(SS(=O)(=O)O)c1ccccc1 (centres unmarked) — mean female worms recovered (Schistosoma mansoni; infected mice; 600 mg/kg single, dosed day 1, perfusion day 44): 11.8 worms per mouse
N=C(N)NCCC[C@@H]1NC(=O)[C@H](CCCNC(=N)N)NC(=O)[C@@H](CCCNC(=N)N)NC(=O)[C@@H](CCCNC(=N)N)NC(=O)[C@@H](C(c2ccccc2)c2ccccc2)NC(=O)[C@@H](Cc2c[nH]c3ccccc23)NC(=O)[C@@H](C(c2ccccc2)c2ccccc2)NC1=O — MIC (Blastomyces dermatitidis; BD-3): 2 µg/mL (≈ 1.59 µM)
FC(F)(F)c1cccc(CNc2nc(NC3CCN(Cc4ccccc4)CC3)c3nc[nH]c3n2)c1 — log2 fold change (Cryptococcus neoformans; RNA-seq, item: ARG2 (CNAG_02802); wild type; 48 µg/mL, 3 h; relative to: untreated wild type): 1.13
CCCCCCCCCC(=O)N[C@@H](Cc1c[nH]c2ccccc12)C(=O)N[C@H](CC(N)=O)C(=O)N[C@@H](CC(=O)O)C(=O)N[C@@H]1C(=O)NCC(=O)N[C@@H](CCCNC(=O)OC2/C=C/CCCCC2)C(=O)N[C@@H](CC(=O)O)C(=O)N[C@H](C)C(=O)N[C@@H](CC(=O)O)C(=O)NCC(=O)N[C@H](CO)C(=O)N[C@@H]([C@H](C)CC(=O)O)C(=O)N[C@@H](CC(=O)c2ccccc2N)C(=O)O[C@@H]1C (some centres unmarked) — heat flow peak reduction (Staphylococcus aureus; isothermal microcalorimetry; MRSA; 0.5 µg/mL; relative to: free drug): 4.2 fold
Cn1c(=O)c(-c2ccccc2Cl)cc2cnc(Nc3cccc(S(C)(=O)=O)c3)nc21 — EC50 (Cryptosporidium hominis; parasite growth, high-content imaging; HCT-8): 0.16 µM
Cc1cc(C(=O)Nc2nc3cccc(C)c3n2[C@H]2CCCCN(C(=O)/C=C/CN(C)C)C2)ccn1 — EC50 (Leishmania donovani; cell growth; HU3 axenic amastigotes): 0.606 µM
CCCOC(=O)N1c2cc(CNC)ccc2[C@H](NC(=O)C(=O)Nc2ccc(Cl)c(F)c2)[C@H]1CNC(=N)N — IC80 (HIV-1; pseudovirus infection, Env pseudovirus neutralisation; TZM-bl, clade B T/F isolate d15_410_787): 1.38 µM
CCC1(CC)CC(=O)N(C2c3cc(C(=O)NC4c5ccccc5CC4O)ccc3OC2(C)COC)C(=N)N1 (centres unmarked) — log PRR (Plasmodium falciparum; 3D7; 10 × EC50, 120 h): 3.62
CC(C)(O/N=C(\C(=O)N[C@@H]1C(=O)N(OS(=O)(=O)O)C1(C)C)c1nsc(N)n1)C(=O)O — MIC (Serratia marcescens; agar dilution; ATCC 21074, susceptible): 64 µg/mL (≈ 137 µM)
COc1ccccc1-c1n[nH]c2nc(NC3CCN(C(=O)Cc4ccc(F)cc4F)CC3)ncc12 — EC50 (Leishmania donovani; parasite growth; THP-1; intracellular, amastigote): 0.0752 µM
c1ccc(CC(c2c[nH]c3ccccc23)c2c[nH]c3ccccc23)cc1 — IC50 (Bacteroides fragilis; microbial growth, absorbance): 8.7 µM
COC1C=COC2(C)Oc3c(C)c(O)c4c(c3C2=O)C2=NC3(CCN(CC(C)C)CC3)NC2=C(NC(=O)C(C)=CC=CC(C)C(O)C(C)C(O)C(C)C(OC(=O)Nc2cnccn2)C1C)C4=O (centres unmarked) — MIC90 (Mycobacteroides abscessus; clinical isolates; 90% isolates inhibited): 310 µM (≈ 287 µg/mL)
